Assay results from different studies.
“And” joins repeats or separate records; there may be more than shown. ± gives the spread as reported.
eis: N-acetyltransferase Eis (eis, Mycobacterium tuberculosis, UniProt P9WFK7)
Chain of UniProt P9WFK7 (whole entry, looked up): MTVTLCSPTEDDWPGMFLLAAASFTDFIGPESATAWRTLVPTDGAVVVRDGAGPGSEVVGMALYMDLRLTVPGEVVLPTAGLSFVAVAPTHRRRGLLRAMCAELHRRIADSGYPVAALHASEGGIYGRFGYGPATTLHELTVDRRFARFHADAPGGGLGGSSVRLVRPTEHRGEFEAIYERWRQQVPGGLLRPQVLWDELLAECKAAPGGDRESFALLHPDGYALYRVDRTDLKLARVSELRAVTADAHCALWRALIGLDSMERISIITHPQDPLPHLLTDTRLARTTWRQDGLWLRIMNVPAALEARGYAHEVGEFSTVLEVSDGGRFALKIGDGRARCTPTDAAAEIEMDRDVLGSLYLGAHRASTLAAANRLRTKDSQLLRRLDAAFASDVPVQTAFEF
4'-phosphopantetheinyl transferase PptT: 4'-phosphopantetheinyl transferase PptT (Mycobacterium tuberculosis, UniProt O33336)
Chain of UniProt O33336 (whole entry, looked up): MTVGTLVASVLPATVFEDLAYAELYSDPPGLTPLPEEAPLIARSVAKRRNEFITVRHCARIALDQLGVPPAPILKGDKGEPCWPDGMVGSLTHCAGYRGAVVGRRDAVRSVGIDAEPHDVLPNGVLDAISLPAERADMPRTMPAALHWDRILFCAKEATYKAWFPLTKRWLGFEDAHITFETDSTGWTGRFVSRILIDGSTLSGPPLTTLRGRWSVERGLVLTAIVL
Psmb8: Proteasome subunit beta type-8 (Psmb8, Mus musculus, UniProt P28063)
Chain of UniProt P28063 (whole entry, looked up): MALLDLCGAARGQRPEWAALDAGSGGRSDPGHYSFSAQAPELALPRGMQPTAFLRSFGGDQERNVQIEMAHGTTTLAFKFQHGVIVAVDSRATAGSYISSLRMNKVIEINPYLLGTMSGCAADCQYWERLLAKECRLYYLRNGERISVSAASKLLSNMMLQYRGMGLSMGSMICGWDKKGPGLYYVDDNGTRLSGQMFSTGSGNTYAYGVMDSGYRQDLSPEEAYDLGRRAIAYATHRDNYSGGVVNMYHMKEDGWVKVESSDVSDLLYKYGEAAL
Polymerase acidic protein PA with PB1 subunit: Polymerase acidic protein, PA with PB1 subunit (Influenza A virus, UniProt P03433)
rep main protease: Replicase polyprotein 1ab, main protease (rep, Severe acute respiratory syndrome coronavirus 2, UniProt P0DTD1)
NA: Neuraminidase (NA, Influenza A virus, UniProt P03482)
Chain of UniProt P03482 (whole entry, looked up): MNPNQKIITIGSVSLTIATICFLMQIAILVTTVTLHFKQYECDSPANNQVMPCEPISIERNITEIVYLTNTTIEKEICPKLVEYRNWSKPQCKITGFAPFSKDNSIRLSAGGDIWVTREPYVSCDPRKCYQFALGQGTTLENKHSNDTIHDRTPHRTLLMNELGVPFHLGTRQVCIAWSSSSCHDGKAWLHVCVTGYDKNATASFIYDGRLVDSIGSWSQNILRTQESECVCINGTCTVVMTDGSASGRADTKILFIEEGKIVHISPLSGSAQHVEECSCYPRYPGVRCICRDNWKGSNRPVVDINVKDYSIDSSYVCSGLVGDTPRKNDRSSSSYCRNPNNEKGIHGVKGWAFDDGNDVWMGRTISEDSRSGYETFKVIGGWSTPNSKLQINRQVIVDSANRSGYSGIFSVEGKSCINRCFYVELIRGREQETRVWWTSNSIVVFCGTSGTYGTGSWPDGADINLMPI
prcB open-gate 20S proteasome: Proteasome subunit beta, open-gate 20S proteasome (prcB, Mycobacterium tuberculosis, UniProt P9WHT9)
Chain of UniProt P9WHT9 (whole entry, looked up): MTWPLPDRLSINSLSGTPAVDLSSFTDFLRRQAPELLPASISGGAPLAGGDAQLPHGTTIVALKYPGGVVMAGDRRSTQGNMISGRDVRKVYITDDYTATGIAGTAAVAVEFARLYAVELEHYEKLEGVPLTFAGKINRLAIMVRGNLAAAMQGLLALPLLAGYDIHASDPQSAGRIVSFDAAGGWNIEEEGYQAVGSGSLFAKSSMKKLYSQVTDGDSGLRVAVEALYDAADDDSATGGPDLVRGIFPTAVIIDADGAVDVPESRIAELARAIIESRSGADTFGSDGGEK
EH domain-containing protein 1: EH domain-containing protein 1 (Homo sapiens, UniProt Q9H4M9)
Chain of UniProt Q9H4M9 (whole entry, looked up): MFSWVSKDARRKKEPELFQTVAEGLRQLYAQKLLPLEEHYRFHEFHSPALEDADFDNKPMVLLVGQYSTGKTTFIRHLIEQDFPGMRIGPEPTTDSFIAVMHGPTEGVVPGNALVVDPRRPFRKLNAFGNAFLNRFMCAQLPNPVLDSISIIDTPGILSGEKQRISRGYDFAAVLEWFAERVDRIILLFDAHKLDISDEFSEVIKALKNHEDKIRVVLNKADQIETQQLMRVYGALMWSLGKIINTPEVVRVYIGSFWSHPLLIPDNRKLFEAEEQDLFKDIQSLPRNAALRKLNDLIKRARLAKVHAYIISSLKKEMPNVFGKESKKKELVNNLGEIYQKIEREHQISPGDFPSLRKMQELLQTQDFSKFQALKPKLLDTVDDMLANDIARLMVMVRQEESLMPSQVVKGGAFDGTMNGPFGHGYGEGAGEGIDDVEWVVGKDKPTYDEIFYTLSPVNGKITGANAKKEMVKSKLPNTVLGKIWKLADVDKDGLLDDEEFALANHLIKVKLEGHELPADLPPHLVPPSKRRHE
Chain of UniProt P9WNX1 (whole entry, looked up): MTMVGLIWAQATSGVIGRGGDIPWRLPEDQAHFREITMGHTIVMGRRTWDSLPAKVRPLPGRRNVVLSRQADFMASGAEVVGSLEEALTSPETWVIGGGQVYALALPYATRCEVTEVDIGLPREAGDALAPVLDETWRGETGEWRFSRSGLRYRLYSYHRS
Chain of UniProt P31652 (whole entry, looked up): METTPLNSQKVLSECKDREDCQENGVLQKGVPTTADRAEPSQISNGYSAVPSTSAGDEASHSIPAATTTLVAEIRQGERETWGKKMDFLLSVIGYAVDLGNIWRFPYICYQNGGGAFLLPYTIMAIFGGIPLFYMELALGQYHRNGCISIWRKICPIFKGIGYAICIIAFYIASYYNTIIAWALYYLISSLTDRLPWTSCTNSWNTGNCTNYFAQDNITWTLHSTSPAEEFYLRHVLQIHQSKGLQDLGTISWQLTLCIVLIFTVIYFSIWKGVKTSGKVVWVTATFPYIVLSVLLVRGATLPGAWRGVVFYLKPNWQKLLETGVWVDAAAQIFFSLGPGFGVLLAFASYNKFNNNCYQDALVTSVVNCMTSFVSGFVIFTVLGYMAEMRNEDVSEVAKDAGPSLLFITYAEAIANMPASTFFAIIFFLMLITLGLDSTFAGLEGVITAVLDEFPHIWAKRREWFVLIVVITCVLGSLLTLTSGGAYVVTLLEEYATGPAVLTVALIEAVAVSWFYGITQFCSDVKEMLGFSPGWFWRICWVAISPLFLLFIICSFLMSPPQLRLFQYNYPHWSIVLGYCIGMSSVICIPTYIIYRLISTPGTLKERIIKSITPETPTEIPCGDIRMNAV
Chain of UniProt P9WMJ9 (whole entry, looked up): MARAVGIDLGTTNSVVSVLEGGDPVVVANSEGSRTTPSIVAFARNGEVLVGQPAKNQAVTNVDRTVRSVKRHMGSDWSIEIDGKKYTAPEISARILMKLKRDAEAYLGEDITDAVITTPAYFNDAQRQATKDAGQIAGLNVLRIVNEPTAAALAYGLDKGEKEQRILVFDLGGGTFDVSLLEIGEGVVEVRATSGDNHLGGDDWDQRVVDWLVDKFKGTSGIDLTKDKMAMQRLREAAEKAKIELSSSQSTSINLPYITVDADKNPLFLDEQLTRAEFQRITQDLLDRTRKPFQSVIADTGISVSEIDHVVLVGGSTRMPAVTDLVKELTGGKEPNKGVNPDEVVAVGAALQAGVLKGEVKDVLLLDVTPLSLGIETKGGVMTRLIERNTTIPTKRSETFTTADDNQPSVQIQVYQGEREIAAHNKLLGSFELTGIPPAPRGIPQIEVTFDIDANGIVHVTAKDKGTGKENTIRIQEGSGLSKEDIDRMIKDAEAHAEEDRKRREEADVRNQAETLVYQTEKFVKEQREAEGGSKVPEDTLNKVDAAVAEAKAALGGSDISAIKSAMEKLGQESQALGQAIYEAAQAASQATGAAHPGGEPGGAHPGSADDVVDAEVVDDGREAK
Chain of UniProt Q9HAC7 (whole entry, looked up): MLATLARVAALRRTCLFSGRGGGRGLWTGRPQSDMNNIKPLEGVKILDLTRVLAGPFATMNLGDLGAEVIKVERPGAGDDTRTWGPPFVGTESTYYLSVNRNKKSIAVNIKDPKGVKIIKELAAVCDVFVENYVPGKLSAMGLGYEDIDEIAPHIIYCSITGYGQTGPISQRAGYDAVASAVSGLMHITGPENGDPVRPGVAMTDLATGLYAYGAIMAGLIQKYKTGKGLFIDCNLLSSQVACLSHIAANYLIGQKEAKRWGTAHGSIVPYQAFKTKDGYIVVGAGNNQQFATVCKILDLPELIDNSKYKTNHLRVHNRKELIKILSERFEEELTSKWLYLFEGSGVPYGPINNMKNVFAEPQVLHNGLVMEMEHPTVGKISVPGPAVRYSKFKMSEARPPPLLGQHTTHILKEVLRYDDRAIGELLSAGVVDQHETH
Chain of UniProt P16662 (whole entry, looked up): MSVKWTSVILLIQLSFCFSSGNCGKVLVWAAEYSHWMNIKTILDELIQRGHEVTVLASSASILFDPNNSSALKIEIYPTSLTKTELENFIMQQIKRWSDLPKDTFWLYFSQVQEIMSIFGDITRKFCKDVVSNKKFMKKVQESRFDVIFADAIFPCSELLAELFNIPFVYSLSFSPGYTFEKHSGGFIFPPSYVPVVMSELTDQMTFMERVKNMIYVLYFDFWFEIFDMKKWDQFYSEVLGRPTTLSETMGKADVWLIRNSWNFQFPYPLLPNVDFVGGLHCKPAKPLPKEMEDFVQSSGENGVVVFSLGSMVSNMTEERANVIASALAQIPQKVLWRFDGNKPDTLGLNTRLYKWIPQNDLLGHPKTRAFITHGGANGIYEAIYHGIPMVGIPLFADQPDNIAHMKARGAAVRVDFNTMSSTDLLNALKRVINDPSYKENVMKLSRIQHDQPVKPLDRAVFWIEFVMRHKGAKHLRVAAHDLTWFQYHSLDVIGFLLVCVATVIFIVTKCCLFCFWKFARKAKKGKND

SMILES	target	assay	test system	conditions	IC50
Nc1nc(SCCCN2CCCCC2)nc2sc3c(c12)CCC3	eis	inhibitor	–	–	750 ± 60 nM
Cc1nc(=O)c2cc(CN(C)c3ccc(C(=O)N4CCc5ccc(C(=O)O)cc5C4)s3)ccc2[nH]1	4'-phosphopantetheinyl transferase PptT	enzyme activity, inhibitor, fluorescence polarization	–	enzyme 100 nM	2030 nM
CCCCCc1cc(O)c2c(c1)OC(C)(C)C1CCC(C)=CC21 (single isomer, unassigned; (-))	Cytochrome P450 2C19 (CYP2C19, Homo sapiens, UniProt P33261)	inhibitor	HEK cell microsomes	30 min preincubation without NADPH	3200 ± 2500 nM
CC(C)[C@H](NC(=O)N[C@H](C(=O)N[C@H]1/C=C/CCNC(=O)/C=C/[C@H](C(C)C)NC1=O)C(C)C)C(=O)O	Psmb8	inhibitor	–	–	180 nM
Cc1cc(-c2ccccc2)n2nc(C(=O)Nc3sc4c(c3C(N)=O)CCCCC4)nc2n1	Polymerase acidic protein PA with PB1 subunit	PA-PB1 interaction, inhibitor, ELISA	–	–	1100 ± 300 nM
NC1=NC2(CCCCC2)N(c2ccc(OCc3cn(CCCCOc4ccc5ccc(=O)oc5c4)nn3)cc2)C(N)=N1	Dihydrofolate reductase (folA, Mycobacterium tuberculosis, UniProt P9WNX1)	–	–	–	930 nM and ~1000 nM
O=S(=O)(O)CC1CSSCC(CS(=O)(=O)O)SS1 (centres unmarked)	Response regulator PhoP (Mycobacterium tuberculosis, UniProt P71814)	DNA binding, fluorescence polarization	–	with: 6-FAM DNA 10 nM	18000 ± 1300 nM
Cc1nc(=O)c2cc(CN(C)c3ccc(C(=O)NCCc4nn[nH]n4)s3)ccc2[nH]1	4'-phosphopantetheinyl transferase PptT	enzyme activity, inhibitor, fluorescence polarization	–	enzyme 100 nM	200 nM
CC(c1cccc(Cl)c1)N(C)C(=O)Cn1nnc2ccccc21 (centres unmarked)	rep main protease	cell-based	–	–	642000 ± 204000 nM
Nc1nc(SCCCN2CCCCC2)nc2sc3c(c12)CCC(c1ccccc1)C3 (centres unmarked)	eis	inhibitor	–	–	230 ± 80 nM
Cc1cc(-c2ccccc2)n2nc(-c3nc4sc5c(c4c(=O)o3)CCCCC5)nc2n1	Polymerase acidic protein PA with PB1 subunit	PA-PB1 interaction, inhibitor, ELISA	–	–	19000 ± 1000 nM
CCC1CN2CCC3(O)C(=Nc4cccc(OC)c43)C2CC1C(=COC)C(=O)OC (centres unmarked)	UDP-glucuronosyltransferase 2B7 (UGT2B7, Homo sapiens, UniProt P16662)	enzyme activity, inhibitor	–	2 h, pH 7.4	26400 nM
CCCCCc1cc(O)c2c(c1)OC(C)(C)C1CCC(C)=CC21 (single isomer, unassigned; (-))	UDP-glucuronosyltransferase 1A9 (UGT1A9, Homo sapiens, UniProt O60656)	enzyme activity, inhibitor	HEK293	pH 7.4	450 nM
Cc1cc(O)cc(O)c1C(=O)O[C@@H]1CC2=C(COC([C@@H]3O[C@@H]3C)=C2)C(=O)[C@]1(C)O	NA	–	influenza A virus H3N2	–	186000 nM and 177000 nM
CCN(CC)CCNC(=O)CSc1nc(N)c2c3c(sc2n1)CCC3	eis	inhibitor	–	–	1900 ± 600 nM
COC(=O)[C@@H](CCCNC(=O)OC(C)(C)C)NC(=O)c1ccc(NCc2ccc3nc(N)nc(N)c3c2Cl)cc1	4'-phosphopantetheinyl transferase PptT	enzyme activity, inhibitor, fluorescence polarization	–	enzyme 100 nM	> 25000 nM
CC1CCc2c(sc3nc(SCCN4CCCCC4)nc(N)c23)C1 (centres unmarked)	eis	inhibitor	–	–	2000 ± 300 nM
COC(=O)CC[C@H](NC(=O)c1ccc(N(C)Cc2ccc3[nH]c(C)nc(=O)c3c2)s1)C(=O)OC	4'-phosphopantetheinyl transferase PptT	enzyme activity, inhibitor, fluorescence polarization	–	enzyme 100 nM	12500 nM
COC[C@H](NC(=O)[C@H](CC(=O)N1CCCCC1)NC(=O)CCc1ccccc1)C(=O)NCc1cccc2ccccc12	prcB open-gate 20S proteasome	enzyme activity, inhibitor	–	with: LLVY substrate	16 ± 1 nM

SMILES	target	assay	test system	conditions	IC50
C[C@@H]1NC(=O)[C@@H]2CCCN2C(=O)[C@H](C)NC(=O)[C@H](Cc2ccc(O)cc2)NC(=O)CNC(=O)CNC(=O)[C@H](CCC(=O)O)NC(=O)[C@H](CCC(=O)O)NC1=O	EH domain-containing protein 1	ligand displacement, FP	–	–	> 450000 nM
Cc1nc(=O)c2cc(CN(C)c3ccc(C(=O)Nc4n[nH]c5ccccc45)s3)ccc2[nH]1	4'-phosphopantetheinyl transferase PptT	enzyme activity, inhibitor, fluorescence polarization	–	enzyme 100 nM	1040 nM and 1000 nM
Cc1ccc(Nc2cccc(C(=O)Nc3cc(C(=O)OCc4ccccc4)[nH]n3)c2)nn1	rep main protease	cell-based	–	–	68000 ± 11000 nM
Cc1cc(O)cc(O)c1C(=O)O[C@@H]1CC2=C(COC(CC(C)O)=C2)C(=O)[C@]1(C)O (some centres unmarked)	NA	–	influenza A virus H3N2	–	231000 nM and 236000 nM
CC1CCc2c(sc3nc(SCC(=O)NCCN4CCCCC4)nc(N)c23)C1 (centres unmarked)	eis	inhibitor	–	–	3700 ± 600 nM
CCN(CC)C(=O)C[C@H](NC(=O)CCc1ccccc1)C(=O)N[C@@H](COC)C(=O)NCc1cccc2ccccc12	prcB open-gate 20S proteasome	enzyme activity, inhibitor	–	with: LLVY substrate	23 ± 2 nM
NC(=O)C[C@@H]1NC(=O)[C@H](Cc2ccc(O)cc2)NC(=O)CNC(=O)CNC(=O)[C@H](CCC(=O)O)NC(=O)[C@H](CCC(=O)O)NC(=O)[C@H](Cc2ccccc2)NC(=O)[C@@H]2CCCN2C1=O	EH domain-containing protein 1	ligand displacement, FP	–	–	49200 nM
Cc1nc(=O)c2cc(CN(C)c3cccc(C(=O)Nc4n[nH]c5ccccc45)c3)ccc2[nH]1	4'-phosphopantetheinyl transferase PptT	enzyme activity, inhibitor, fluorescence polarization	–	enzyme 100 nM	1360 nM
CC(C)C[C@H](N)C(=O)N1CCC[C@H]1C(=O)N[C@@H](Cc1ccccc1)C(=O)N[C@@H](C)C(=O)O	Dipeptidyl peptidase 4 (DPP4, Homo sapiens, UniProt P27487)	–	–	–	268000 ± 7200 nM
Nc1nc(SCC(=O)NCCN2CCCCC2)nc2sc3c(c12)CCCCC3	eis	inhibitor	–	–	300 ± 60 nM
Cc1nc(=O)c2cc(CN(C)c3ccc(C(=O)NCc4cccc(C(=O)O)c4)s3)ccc2[nH]1	4'-phosphopantetheinyl transferase PptT	enzyme activity, inhibitor, fluorescence polarization	–	enzyme 100 nM	330 nM
Nc1nc(SCCN2CCCC2)nc2sc3c(c12)CCC3	eis	inhibitor	–	–	2200 ± 300 nM
Cc1nc(=O)c2cc(CN(C)c3cccc(C(=O)N[C@@]4(C(=O)O)CC[C@@H](C(=O)O)C4)c3)ccc2[nH]1	4'-phosphopantetheinyl transferase PptT	enzyme activity, inhibitor, fluorescence polarization	–	enzyme 100 nM	60 nM
Nc1nc(SCCN2CCCC2)nc2sc3c(c12)CCC(c1ccccc1)C3 (centres unmarked)	eis	inhibitor	–	–	4000 ± 1100 nM
CCCCc1nc(Cl)c(C(=O)O)n1Cc1ccc(-c2ccccc2-c2nn[nH]n2)cc1	Succinyl-CoA:glutarate CoA-transferase (SUGCT, Homo sapiens, UniProt Q9HAC7)	enzyme activity, inhibitor, coupled fluorometric	–	pH 7.4	1700 nM
N#Cc1ccc(Nc2cccc(C(=O)NCCc3c[nH]c4cc(F)ccc34)c2)cc1	rep main protease	–	–	cell-based	37000 ± 6000 nM
CC(=O)Oc1cccc2[nH]cc(CC[N+](C)(C)C)c12	Sodium-dependent serotonin transporter (Slc6a4, Rattus norvegicus, UniProt P31652)	transporter uptake, inhibitor, radiometric	–	–	3500 nM
CCCCCCCCC/C=C/C=C/C(=O)N[C@H](C(=O)N[C@H]1C[C@@H](O)CCNC(=O)/C=C/[C@H](C)NC1=O)[C@@H](C)O	Psmb8	inhibitor	–	–	1.3 nM
CC(C)C[C@H](NC(=O)[C@@H]1CCCN1C(=O)[C@@H](NC(=O)[C@@H](NC(=O)c1cnccn1)C(C)C)C(C)C)C(=O)O	Chaperone protein DnaK, with DnaJ2, GrpE (dnaK, Mycobacterium tuberculosis, UniProt P9WMJ9)	–	–	–	~192000 nM
